{"data": "Results pooled from the literature", "CYP3A4": "Cytochrome P450 3A4 (CYP3A4, Homo sapiens, UniProt P08684)", "note": "Lines come from different studies, so protocols differ. “And” joins repeats or separate records; there may be more than shown. ± marks the error that the study gave.", "sequence of UniProt P08684 (whole entry, looked up)": "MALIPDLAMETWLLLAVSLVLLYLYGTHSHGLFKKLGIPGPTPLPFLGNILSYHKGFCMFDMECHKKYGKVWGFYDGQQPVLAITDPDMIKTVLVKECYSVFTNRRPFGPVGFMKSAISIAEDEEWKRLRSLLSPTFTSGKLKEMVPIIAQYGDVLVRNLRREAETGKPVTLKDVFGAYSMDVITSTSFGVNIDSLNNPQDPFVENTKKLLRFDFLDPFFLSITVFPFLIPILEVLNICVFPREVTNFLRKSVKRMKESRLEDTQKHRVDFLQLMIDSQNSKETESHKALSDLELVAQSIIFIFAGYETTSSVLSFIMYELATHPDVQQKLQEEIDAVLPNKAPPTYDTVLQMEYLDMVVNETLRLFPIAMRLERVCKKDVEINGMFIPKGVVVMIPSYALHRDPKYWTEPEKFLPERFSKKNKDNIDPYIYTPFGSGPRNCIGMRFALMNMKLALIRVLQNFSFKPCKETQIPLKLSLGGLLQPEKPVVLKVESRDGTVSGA", "sequence of UniProt P10619 (whole entry, looked up)": "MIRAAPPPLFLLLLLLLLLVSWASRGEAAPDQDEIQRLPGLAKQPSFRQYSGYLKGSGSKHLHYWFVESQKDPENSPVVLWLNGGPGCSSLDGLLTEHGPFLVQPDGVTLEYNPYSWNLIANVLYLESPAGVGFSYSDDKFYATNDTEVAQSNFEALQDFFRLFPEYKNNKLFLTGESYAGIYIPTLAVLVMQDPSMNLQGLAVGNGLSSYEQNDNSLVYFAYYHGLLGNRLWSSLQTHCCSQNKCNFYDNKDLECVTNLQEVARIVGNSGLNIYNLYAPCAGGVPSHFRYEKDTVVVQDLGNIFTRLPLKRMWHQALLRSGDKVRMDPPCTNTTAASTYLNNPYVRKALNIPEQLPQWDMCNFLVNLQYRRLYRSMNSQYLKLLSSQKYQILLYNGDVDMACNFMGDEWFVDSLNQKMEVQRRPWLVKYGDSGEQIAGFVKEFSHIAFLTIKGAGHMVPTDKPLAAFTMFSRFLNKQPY", "sequence of UniProt Q9UNQ0 (whole entry, looked up)": "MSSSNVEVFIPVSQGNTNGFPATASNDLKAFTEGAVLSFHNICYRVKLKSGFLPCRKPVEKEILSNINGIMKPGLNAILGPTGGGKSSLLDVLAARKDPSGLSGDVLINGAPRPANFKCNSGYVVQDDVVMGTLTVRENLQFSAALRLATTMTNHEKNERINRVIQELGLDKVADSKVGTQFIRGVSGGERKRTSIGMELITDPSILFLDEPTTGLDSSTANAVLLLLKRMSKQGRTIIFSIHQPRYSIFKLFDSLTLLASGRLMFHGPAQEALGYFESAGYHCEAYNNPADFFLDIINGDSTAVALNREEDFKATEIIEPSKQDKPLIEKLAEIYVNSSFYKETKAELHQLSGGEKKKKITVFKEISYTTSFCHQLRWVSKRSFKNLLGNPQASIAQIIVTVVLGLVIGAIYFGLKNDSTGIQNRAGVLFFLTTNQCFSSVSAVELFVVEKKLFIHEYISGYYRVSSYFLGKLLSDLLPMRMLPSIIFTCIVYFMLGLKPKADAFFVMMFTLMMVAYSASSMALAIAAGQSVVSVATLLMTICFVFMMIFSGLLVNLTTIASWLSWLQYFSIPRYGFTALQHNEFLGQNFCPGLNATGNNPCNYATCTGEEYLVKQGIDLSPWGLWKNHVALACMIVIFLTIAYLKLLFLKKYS", "sequence of UniProt Q96NY8 (whole entry, looked up)": "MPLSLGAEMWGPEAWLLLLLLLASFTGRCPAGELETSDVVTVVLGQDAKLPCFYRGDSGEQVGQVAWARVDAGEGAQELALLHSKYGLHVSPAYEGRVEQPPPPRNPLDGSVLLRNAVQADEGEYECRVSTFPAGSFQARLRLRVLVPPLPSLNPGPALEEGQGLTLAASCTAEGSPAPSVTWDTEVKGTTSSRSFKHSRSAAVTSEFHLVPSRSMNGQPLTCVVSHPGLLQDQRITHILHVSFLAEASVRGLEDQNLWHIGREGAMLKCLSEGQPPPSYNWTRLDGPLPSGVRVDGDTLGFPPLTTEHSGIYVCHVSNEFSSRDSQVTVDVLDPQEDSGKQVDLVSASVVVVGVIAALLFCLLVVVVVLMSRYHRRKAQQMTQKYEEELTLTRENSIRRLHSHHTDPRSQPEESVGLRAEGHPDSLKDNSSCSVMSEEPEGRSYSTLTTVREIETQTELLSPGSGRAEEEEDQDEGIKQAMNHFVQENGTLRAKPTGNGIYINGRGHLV", "sequence of UniProt O15244 (whole entry, looked up)": "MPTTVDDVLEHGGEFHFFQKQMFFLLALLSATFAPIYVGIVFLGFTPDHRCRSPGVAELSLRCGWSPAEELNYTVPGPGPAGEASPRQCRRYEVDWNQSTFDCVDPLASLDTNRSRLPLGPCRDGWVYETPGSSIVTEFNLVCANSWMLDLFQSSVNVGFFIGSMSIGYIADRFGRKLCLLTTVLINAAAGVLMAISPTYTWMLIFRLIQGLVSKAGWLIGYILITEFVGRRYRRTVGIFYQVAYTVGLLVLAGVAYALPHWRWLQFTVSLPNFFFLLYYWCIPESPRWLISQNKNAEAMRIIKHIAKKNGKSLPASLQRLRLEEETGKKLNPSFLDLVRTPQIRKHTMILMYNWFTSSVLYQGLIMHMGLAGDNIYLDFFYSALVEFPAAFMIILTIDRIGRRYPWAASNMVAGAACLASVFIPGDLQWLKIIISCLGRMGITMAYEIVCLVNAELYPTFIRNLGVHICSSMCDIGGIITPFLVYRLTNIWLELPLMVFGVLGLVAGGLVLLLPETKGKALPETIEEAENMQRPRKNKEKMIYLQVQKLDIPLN", "sequence of UniProt Q07011 (whole entry, unmodified, looked up)": "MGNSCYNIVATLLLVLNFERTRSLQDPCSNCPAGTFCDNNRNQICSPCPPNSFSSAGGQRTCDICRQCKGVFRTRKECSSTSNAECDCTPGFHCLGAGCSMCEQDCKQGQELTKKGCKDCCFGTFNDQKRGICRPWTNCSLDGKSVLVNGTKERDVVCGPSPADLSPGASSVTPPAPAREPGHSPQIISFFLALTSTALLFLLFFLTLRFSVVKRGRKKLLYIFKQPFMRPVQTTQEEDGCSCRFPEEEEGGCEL"}
{"SMILES": "CNC(=O)C1CCCN(C(=O)C2CC3CCC2N3C(=O)[C@@H]2C[C@@H](O)CN2C(=O)NCc2cccc(Cl)c2F)C1 (mixture of isomers)", "tested on": "human CYP3A4", "test": "time-dependent inhibition", "conditions": "5.56 µM, preincubation without NADPH, with: midazolam", "measurement": "1-hydroxymidazolam formed", "value": "1160 ng/mL"}
{"SMILES": "Cc1cc(-c2ccc3ccccc3c2)nnc1NCCN1CCN(C)CC1", "tested on": "CYP3A4", "test": "substrate", "system": "recombinant enzyme", "conditions": "100 nM", "measurement": "half-life", "value": "> 1 h"}
{"SMILES": "CC(=O)NCCCC[C@@H]1NC(=O)[C@H](Cc2c[nH]c3c(C)cccc23)NC(=O)[C@H]([C@@H](C)O)NC(=O)[C@H](CC(N)=O)NC(=O)[C@@H](NC(C)=O)C(C)(C)SSC(C)(C)[C@@H](C(=O)N[C@@H](Cc2ccc(OCCN)cc2)C(=O)N[C@@H](Cc2ccc3ccccc3c2)C(=O)NC2(C(=O)N[C@@H](CCC(=O)O)C(=O)N[C@@H](CC(N)=O)C(=O)N[C@@H](Cc3cccnc3)C(=O)N(C)CC(N)=O)CCOCC2)NC1=O", "tested on": "Solute carrier family 22 member 2 (SLC22A2, Homo sapiens, UniProt O15244)", "test": "substrate", "system": "HEK293 overexpressing transporter", "conditions": "5 µM, 30 min, with: 300 µM quinidine", "measurement": "uptake rate", "value": "0.449 ± 0.077 pmol/mg/min"}
{"SMILES": "CCCCCCCCCCCC(=O)C(C)C(=O)N1CCC[C@H]1C(=O)NC(C)(C)C(=O)NC(C)(C)C(=O)NC(C)(C)C(=O)N[C@](C)(CC)C(=O)NCCC(=O)N[C@@H](C)C(=O)N[C@](C)(CC)C(=O)N[C@@H](C)C(=O)N[C@@H](CC(C)C)C(=O)N[C@](C)(CC)C(=O)NCCC(=O)N[C@@H](C)C(=O)N[C@](C)(CC)C(=O)NCCC(=O)N[C@@H](C)C(=O)NC(C)(C)C(=O)NC(C)(C)C(=O)NC(C)(C)C(=O)N[C@@H](C)C(=O)N[C@@H](CC(=O)O)C(=O)O (some centres unmarked)", "tested on": "trypsin", "test": "LC-MS", "conditions": "40 µM, 60 min, pH 7.5, 37 °C", "how to read": "baseline: 0 h", "measurement": "remaining intact peptide", "value": "79.9%"}
{"SMILES": "CC[C@H](C)[C@@H]1NC(=O)[C@H](CO)NC(=O)C(C)(CCCCN)NC(=O)[C@@H]2CSSC[C@@H](C(=O)N[C@@H](Cc3ccc(O)cc3)C(N)=O)NC(=O)[C@H](CCCCN)NC(=O)[C@@H]3CSSC[C@H](NC(=O)[C@H](CCCNC(=N)N)NC(=O)C(C)(CC(C)C)NC(=O)[C@H](CC(=O)O)NC(=O)[C@H](CC(=O)O)NC(=O)[C@H](CCC(=O)O)NC(=O)[C@H](CC(N)=O)NC(=O)[C@H](Cc4c[nH]c5ccccc45)NC(=O)C(C)(CC)NC(=O)CNC(=O)[C@H](CC(N)=O)NC(=O)[C@@H](NC(=O)CNC(=O)[C@H](Cc4ccccc4)NC(=O)CN)CSSC[C@H](NC(=O)[C@H](Cc4ccc(O)cc4)NC(=O)CNC(=O)CNC(=O)[C@H](CCCCN)NC(=O)[C@H](Cc4ccc(O)cc4)NC(=O)[C@H]4CCCN4C(=O)[C@@H]4CCCN4C1=O)C(=O)N[C@@H](C)C(=O)N[C@@H](CCCCN)C(=O)N1CCC[C@@H]1C(=O)NCC(=O)N[C@@H](Cc1ccccc1)C(=O)N[C@@H](C(C)C)C(=O)N3)C(=O)N[C@@H](Cc1c[nH]cn1)C(=O)NC(C)(C)C(=O)N[C@@H](Cc1c[nH]cn1)C(=O)N2 (some centres unmarked)", "tested on": "trypsin", "test": "peptide degradation, HPLC", "system": "NH4HCO3 CaCl2 buffer", "conditions": "13.2 µM, 24 h, pH 8.5, room temperature", "measurement": "percent degraded", "value": "< 25%"}
{"SMILES": "CCCCCCCC/C=C/CCCCCCCC(=O)[O][Pt-2]1([OH])([Cl])([NH+]=C(CC)N(C)CCNc2c3ccccc3[nH+]c3ccccc23)[NH]CCC[NH]1.O=[N+]([O-])O.O=[N+]([O-])O", "tested on": "Albumin (ALB, Homo sapiens, UniProt P02768)", "test": "tryptophan fluorescence FRET titration", "system": "recombinant human serum albumin", "conditions": "pH 7.4, PBS", "measurement": "Kd", "value": "1.4 µM"}
{"SMILES": "Cc1cccc2c1C1(CCN(C(=O)c3ccc4[nH]ncc4c3)CC1)C(=O)N2CC(=O)NCC(F)(F)F", "tested on": "CYP3A4", "test": "enzyme activity, inhibitor", "measurement": "IC50", "value": "46 µM"}
{"SMILES": "CC[C@H](C)[C@H](NC(=O)[C@@H]1CC(=O)NCC[C@H](NC(=O)[C@H](C)N)C(=O)N[C@@H](CCCNC(=N)N)C(=O)N[C@@H](CC(N)=O)C(=O)N[C@@H]([C@@H](C)CC)C(=O)N[C@@H](Cc2ccccc2)C(=O)N[C@@H](CC(C)C)C(=O)N1)C(=O)N[C@@H](CCCCN)C(=O)N[C@@H](Cc1ccccc1)C(=O)N[C@@H](CCCCN)C(=O)N[C@@H](CCCCN)C(=O)N[C@@H](C)C(=O)O", "tested on": "trypsin", "test": "proteolytic degradation, RP-HPLC", "system": "PBS", "conditions": "0.33 mM, pH 7.4, 37 °C, with: trypsin 0.05 µg/mL", "measurement": "half-life", "value": "< 1.5 h"}
{"SMILES": "CCN(CC)CCOc1ccc(-c2nnn(Cc3ccc(OC)cc3)c2N)cc1", "tested on": "Solute carrier organic anion transporter family member 1B3 (SLCO1B3, Homo sapiens, UniProt Q9NPD5)", "test": "transporter uptake, inhibitor", "measurement": "IC50", "value": "> 100 µM"}
{"SMILES": "Cc1ccc(OCCN(C)C)cc1C(=O)N[C@H](C)c1cc(-c2cnn(C(C)C)c2)nc2ccccc12", "tested on": "Vero E6", "conditions": "3.906 µM", "measurement": "viability", "value": "103% and 90.7%"}
{"SMILES": "CCCC[C@H](NC(=O)[C@H](CCC(=O)O)NC(=O)[C@H](CCCCN)NC(=O)[C@H](CO)NC(=O)[C@H](Cc1ccccc1)NC(C)=O)C(=O)N[C@@H](CCCNC(=N)N)C(=O)N[C@@H](CC(N)=O)C(=O)N[C@@H](CCCNC(=N)N)C(=O)N[C@@H](Cc1ccc(O)cc1)C(=O)N[C@@H](Cc1c[nH]c2ccccc12)C(=O)N[C@@H](CCC(=O)O)C(=O)N[C@@H](C)C(=O)N[C@@H](C)C(=O)N[C@@H](CC(C)C)C(=O)N[C@@H](CC(=O)O)C(=O)N1CCC[C@H]1C(=O)N[C@@H](CC(N)=O)C(=O)N[C@@H](CC(C)C)C(=O)N[C@H](C(=O)N[C@@H](CC(N)=O)C(=O)N[C@@H](CCC(N)=O)C(=O)N[C@@H](CCC(N)=O)C(=O)N[C@@H](CCCCN)C(=O)N[C@@H](CCCNC(=N)N)C(=O)N[C@@H](C)C(=O)N[C@@H](CCCCNC(=O)CCCN(C)C(=O)c1ccccc1-c1c2ccc(=N)cc-2oc2cc(N)ccc12)C(=O)N[C@H](C(=O)N[C@@H](CCCNC(=N)N)C(=O)N[C@@H](CO)C(=O)N[C@H](C(=O)N[C@@H](Cc1ccc(O)cc1)C(=O)N[C@@H](CCC(=O)O)C(=O)N[C@@H](CCC(=O)O)C(N)=O)[C@@H](C)CC)[C@@H](C)CC)[C@@H](C)O", "tested on": "trypsin", "test": "degradation of compound, LC-MS", "conditions": "40 µM, pH 7.5, 37 °C, 10% DMF, with: trypsin 12.5 ng/mL", "measurement": "half-life", "value": "2.85 ± 0.267 h"}
{"SMILES": "O=C1NC2(CC2)COc2ncc(F)cc2[C@H]2COCCN2c2ccn3ncc1c3n2", "system": "Sprague-Dawley rat, male, thymus", "conditions": "oral, 5 mg/kg/day, 4 weeks, end of treatment", "measurement": "organ-to-brain weight ratio", "value": "31.1 ± 6.08%"}
{"SMILES": "CC(C)OC(=O)[C@H](C)NP(=S)(Oc1ccccc1)c1ccccc1 (some centres unmarked)", "tested on": "Lysosomal protective protein (CTSA, Homo sapiens, UniProt P10619)", "test": "substrate, LC-MS/MS", "conditions": "5 µM, pH 7.4, 37 °C", "measurement": "half-life", "value": "3.8 h"}
{"SMILES": "CC[C@H](C)[C@H](NC(=O)[C@H](CCC(N)=O)NC(=O)[C@H](CO)NC(=O)[C@H](NC(=O)[C@@H](NC(=O)CN)C(C)C)[C@@H](C)CC)C(=O)N[C@@H](CCCNC(=N)N)C(=O)N1CCC[C@H]1C(N)=O", "tested on": "Thermolysin (npr, Bacillus thermoproteolyticus, UniProt P00800)", "test": "substrate, HPLC", "conditions": "0.1 µM, 37 °C", "measurement": "time to full degradation", "value": "100 min"}
{"SMILES": "CCCC[C@@H]1NC(=O)[C@H](Cc2ccc(O)cc2)NC(=O)[C@@H]2CCCN2C(=O)[C@H](CC(=O)O)NC(=O)[C@H](C)NC(=O)[C@H](Cc2ccccc2)NC(=O)[C@@H]2CSCCC(=O)N3CN(CN(C3)C(=O)CCSC[C@@H](C(=O)N[C@@H](C)C(N)=O)NC1=O)C(=O)CCSC[C@H](NC(C)=O)C(=O)N[C@@H](CC(C)(C)C)C(=O)N1CCC[C@H]1C(=O)N[C@@H](CCC(=O)O)C(=O)N[C@H](CCCCNC(=O)CCc1cn(CCOCCOCCOCCN(CCOCCOCCOCCC(=O)N[C@H]3CSCCC(=O)N4CN5CN(C4)C(=O)CCSC[C@H](NC(=O)[C@@H](CC(=O)O)NC(=O)[C@H](Cc4cccc6ccccc46)NC(=O)[C@@H]4CCCN4C3=O)C(=O)N[C@@H](CCSC)C(=O)N[C@@H](CCCCNC(=N)N)C(=O)N[C@@H](CC(=O)O)C(=O)N[C@@H](Cc3c[nH]c4ccccc34)C(=O)N[C@@H](CO)C(=O)N[C@@H]([C@@H](C)O)C(=O)N3CCC[C@H]3C(=O)N3C[C@H](O)C[C@H]3C(=O)N[C@@H](Cc3c[nH]c4ccccc34)C(=O)N[C@H](C(N)=O)CSCCC5=O)CCOCCOCCOCCn3cc(CCC(=O)NCCCC[C@H]4NC(=O)[C@H](CCC(=O)O)NC(=O)[C@@H]5CCCN5C(=O)[C@H](CC(C)(C)C)NC(=O)[C@@H](NC(C)=O)CSCCC(=O)N5CN6CN(C5)C(=O)CCSC[C@H](NC(=O)[C@H](Cc5ccc(O)cc5)NC(=O)[C@@H]5CCCN5C4=O)C(=O)N[C@@H](Cc4ccccc4)C(=O)N[C@@H](C)C(=O)N[C@@H](CC(=O)O)C(=O)N4CCC[C@H]4C(=O)N[C@@H](Cc4ccc(O)cc4)C(=O)N[C@@H](CCCC)C(=O)N[C@H](C(=O)N[C@@H](C)C(N)=O)CSCCC6=O)nn3)nn1)C(=O)N1CCC[C@H]1C(=O)N[C@@H](Cc1ccc(O)cc1)C(=O)N2", "tested on": "Tumor necrosis factor receptor superfamily member 9/Nectin-4 (Homo sapiens, UniProt Q07011+Q96NY8)", "test": "reporter gene, agonist, luciferase reporter", "system": "CD137 Jurkat reporter with HT-1376", "conditions": "6 h, geometric mean", "how to read": "baseline: wells without compound", "measurement": "Emax", "value": "54 fold"}
{"SMILES": "Cc1ccc(OCCN(C)C)cc1C(=O)N[C@H](C)c1cc(-c2cnn(C(F)F)c2)nc2ccccc12", "tested on": "Vero E6", "conditions": "31.25 µM", "measurement": "viability", "value": "15.8% and 12.1%"}
{"SMILES": "CSc1nc2[nH]nc([N+](=O)[O-])c(=O)n2n1", "tested on": "Broad substrate specificity ATP-binding cassette transporter ABCG2 (ABCG2, Homo sapiens, UniProt Q9UNQ0)", "test": "transport, inhibitor", "conditions": "100 µM, 5 (unit not given), pH 7, with: CCK-8", "measurement": "inhibition", "value": "23.6%"}
